{"data": "Experimental data gathered from unrelated publications", "note": "Values joined by “and” are separate records of one study, mostly repeats; a detail may differ. ± marks the error that the study gave."}
{"Structure (SMILES)": "CCN(CC)CCN=S(=O)(c1ccccc1)N1CCCCC1 (stereo not shown)", "system": "sodium borate buffer", "setting": "24 h, pH 10, hydrolytic stability", "quantity": "recovery", "result": "100%"}
{"Structure (SMILES)": "CCC[C@]1(NC(=O)c2sccc2Cl)C[C@H](O)C1", "assay": "nephelometry", "system": "HBSS with 1% DMSO", "setting": "6 h, pH 7.4", "quantity": "kinetic solubility", "result": "≥ 1000 µM"}
{"Structure (SMILES)": "C[C@H](CC[C@@H](O[C@@H]1O[C@H](CO[C@@H]2O[C@H](CO)[C@@H](O)[C@H](O)[C@H]2O)[C@@H](O)[C@H](O)[C@H]1O[C@@H]1O[C@H](CO)[C@@H](O)[C@H](O)[C@H]1O)C(C)(C)O)[C@H]1CC[C@@]2(C)[C@@H]3CC=C4[C@@H](CC[C@H](O[C@@H]5O[C@H](CO[C@@H]6O[C@H](CO)[C@@H](O)[C@H](O)[C@H]6O)[C@@H](O)[C@H](O)[C@H]5O)C4(C)C)[C@]3(C)[C@H](O)C[C@]12C", "assay": "dynamic light scattering", "system": "water", "quantity": "micelle diameter", "result": "~160 nm and 160 nm"}
{"Structure (SMILES)": "C#CCOc1ccc(/C=C2\\SC(=O)N(CC(=O)NCc3ccccc3)C2=O)cc1", "assay": "inverse Kirkwood-Buff integrals", "system": "binary solvent mixture", "setting": "298.15 K, mole fraction x1 0.90", "quantity": "Kirkwood-Buff integral G2,3", "result": "-350 cm³/mol"}
{"Structure (SMILES)": "CCCC[C@H](NC(=O)CNC(=O)CNC(=O)CN1CCN(CC(=O)O)CCN(CC(=O)O)CCN(CC(=O)O)CC1)C(=O)N[C@H]1CC(=O)NCCCC[C@@H](C(N)=O)NC(=O)[C@H](Cc2c[nH]c3ccccc23)NC(=O)[C@H](CCCNC(=N)N)NC(=O)[C@@H](Cc2ccccc2)NC(=O)[C@H](Cc2c[nH]cn2)NC1=O [lead-203 labelled]", "system": "C57 mouse, bone", "setting": "intravenous, 0.056 MBq, 24 h", "quantity": "tissue uptake", "result": "1.06 ± 0.54 %ID/g"}
{"Structure (SMILES)": "CC(C)[C@H](NC(=O)CNC(=O)[C@H](CCC(N)=O)NC(=O)[C@H](C)N)C(=O)O", "assay": "LC-MS/MS", "system": "human, plasma", "setting": "intravenous, 30 mg/kg three times daily, day 1, first dose, 10 min infusion, geometric mean", "quantity": "AUC(0-last)", "result": "0.645 µg·h/mL"}
{"Structure (SMILES)": "COc1cc(NC(C)=O)c2c(c1O)-c1c(OC)c(OC)cc3c1C(C2)N(C)CC3 (stereo not shown)", "system": "rat heart homogenate", "setting": "100 µg/mL, 4 h, room temperature, short-term storage", "quantity": "remaining compound", "result": "93.7 ± 2.8%"}
{"Structure (SMILES)": "CN(C)c1ccc2c(-c3cc(C(=O)N4CCN(CCCOc5ccc6nccc(C(=O)NCC(=O)N7CC(F)(F)C[C@H]7C#N)c6c5)CC4)ccc3C(=O)[O-])c3ccc(=[N+](C)C)cc-3oc2c1", "assay": "intravital imaging", "system": "mouse B16-F10-GFP tumour, tumour", "setting": "intravenous, 1 µM, 100 µL", "quantity": "signal clearance onset time", "result": "2 h"}
{"Structure (SMILES)": "CSCOC1C(=O)C2(C)C(OCSC)CC3OCC3(OC(C)=O)C2C(OC(=O)c2ccccc2)C2(O)CC(OC(=O)C(O)C(C=C(C)C)NC(=O)OC(C)(C)C)C(C)=C1C2(C)C (stereo not shown)", "system": "female Sprague-Dawley rat, plasma", "setting": "intravenous, 4 mg/kg", "quantity": "Vd", "result": "41.7 L/kg"}
{"Structure (SMILES)": "O=C(CCCCC[N+]#[C][99Tc-5]([C]#[N+]CCCCCC(=O)N[C@H]1C(O)O[C@H](CO)[C@@H](O)[C@@H]1O)([C]#[N+]CCCCCC(=O)N[C@H]1C(O)O[C@H](CO)[C@@H](O)[C@@H]1O)([C]#[N+]CCCCCC(=O)N[C@H]1C(O)O[C@H](CO)[C@@H](O)[C@@H]1O)([C]#[N+]CCCCCC(=O)N[C@H]1C(O)O[C@H](CO)[C@@H](O)[C@@H]1O)[C]#[N+]CCCCCC(=O)N[C@H]1C(O)O[C@H](CO)[C@@H](O)[C@@H]1O)N[C@H]1C(O)O[C@H](CO)[C@@H](O)[C@@H]1O (stereo partly shown)", "assay": "two-compartment model", "system": "CD-1 mouse, blood", "setting": "dose not given", "quantity": "central volume of distribution", "result": "0.007 L/kg"}
{"Structure (SMILES)": "CC(C)c1cnc(-c2cc(Cl)ccc2F)cc1Nc1ccncc1C(=O)NC(CO)CO", "assay": "monotherapy, measured: nausea", "system": "human patients", "setting": "oral, dose not given, grade 4, phase I A", "quantity": "patients with treatment-related adverse event", "result": "0%"}
{"Structure (SMILES)": "O=C(Nc1nccs1)C(c1cc(F)ccc1O)N1Cc2ccccc2C1=O (stereo not shown)", "system": "mouse plasma", "setting": "6 ng/mL, 24 h, room temperature, short-term stability, low QC", "quantity": "recovery", "result": "89.5 ± 4.7%"}
{"Structure (SMILES)": "NC12CNCCNCC(NCc3ccc(CNC(=O)CCCC(=O)NCc4ccc(-c5nncnn5)cc4)cc3)(CNCCNC1)CNCCNC2.[64Cu+2]", "assay": "OLINDA dosimetry", "system": "lower large intestine wall", "setting": "pretargeting, 48-h interval", "quantity": "mean absorbed dose", "result": "0.0456 rad/mCi"}
{"Structure (SMILES)": "COC(=O)/C=C/C(=O)c1ccc(OC)cc1", "assay": "LC-MS/MS", "system": "rat plasma", "setting": "400 ng/mL, 15 days, -70 °C, long-term storage", "quantity": "recovery", "result": "97.5 ± 9.13%"}
{"Structure (SMILES)": "COc1ccnc(C[S+]([O-])c2nc3cc(-n4cccc4)ccc3[nH]2)c1C (stereo not shown)", "system": "Sprague Dawley rats", "setting": "po, racemate dosed", "scale": "baseline: R-ilaprazole", "quantity": "oral bioavailability", "result": "increased"}
{"Structure (SMILES)": "CCCCCCCCCCCCCCCC(=O)N[C@@H](CCCCN)C(=O)N[C@H](C(=O)N[C@H](C(=O)N[C@@H](CCCCN)C(=O)N[C@@H](CO)C(=O)O)[C@@H](C)O)[C@@H](C)O", "assay": "LC-MS/MS", "system": "hairless mouse, skin, Franz cell", "setting": "50 µg/cm^2 applied, 24 h", "quantity": "amount retained in stratum corneum", "result": "4.2 ± 0.7 µg/cm²"}
{"Structure (SMILES)": "Cn1c(=O)oc2ccc(-c3ccc(CC(C#N)NC(=O)C4CNCCCO4)c(F)c3)cc21 (stereo not shown)", "assay": "measured: blood creatine phosphokinase increased", "system": "human volunteers", "setting": "oral, dose not given", "quantity": "treatment-emergent adverse event incidence", "result": "3.7%"}
{"Structure (SMILES)": "CCCCC1NC(=O)c2ccccc21 (racemic)", "system": "Wistar rat", "setting": "oral, 10 mg/kg", "quantity": "oral bioavailability", "result": "93.7%"}
{"Structure (SMILES)": "CC(C)(Sc1cc[n+]([O-])cc1-c1ccc(C#N)c2ccccc12)C(=O)OC1OC(C(=O)O)C(O)C(O)C1O (stereo not shown)", "system": "adult men, urine", "setting": "oral, 15 mg verinurad, severe renal impairment", "scale": "baseline: impaired over normal renal function", "quantity": "renal clearance ratio (0-72 h)", "result": "11.8%"}
{"Structure (SMILES)": "CC/C=C\\C/C=C\\C/C=C\\C/C=C\\C/C=C\\CCCCOC(CC)C(=O)O (stereo not shown)", "assay": "radioactivity, 14C-labelled", "system": "Wistar rat, male, kidney cortex", "setting": "oral, 100 mg/kg, 1 day", "quantity": "tissue concentration", "result": "9.8 µg equivalents/g tissue"}
{"Structure (SMILES)": "O=[11C](OC(C(F)(F)F)C(F)(F)F)N1CCC(CNS(=O)(=O)c2ccc(Cl)cc2)CC1", "assay": "PET", "system": "rhesus monkey, male, cerebellum", "setting": "iv, 3.71 mCi", "quantity": "uptake", "result": "0.75 SUV"}
{"Structure (SMILES)": "COCCOCCOCCOCCC(=O)NCc1cc(CNC(=O)CCOCCOCCOCCOC)cc(-c2cc3cc4nc(c(-c5ccc(CCC(=O)O)cc5)c5[nH]c(cc6nc(c(OC)c2[nH]3)CC6(C)C)cc5-c2cc(CNC(=O)CCOCCOCCOCCOC)cc(CNC(=O)CCOCCOCCOCCOC)c2)CC4(C)C)c1", "system": "water with 5% DMF", "setting": "room temperature", "quantity": "Qy/B absorption intensity ratio", "result": 0.69}
{"note": "Excerpt of the above:"}
{"Structure (SMILES)": "CC(C)c1cnc(-c2cc(Cl)ccc2F)cc1Nc1ccncc1C(=O)NC(CO)CO", "assay": "monotherapy, measured: nausea", "system": "human patients", "setting": "oral, dose not given, grade 4, phase I A", "quantity": "patients with treatment-related adverse event", "result": "0%"}
{"Structure (SMILES)": "O=C(Nc1nccs1)C(c1cc(F)ccc1O)N1Cc2ccccc2C1=O (stereo not shown)", "system": "mouse plasma", "setting": "6 ng/mL, 24 h, room temperature, short-term stability, low QC", "quantity": "recovery", "result": "89.5 ± 4.7%"}
{"Structure (SMILES)": "NC12CNCCNCC(NCc3ccc(CNC(=O)CCCC(=O)NCc4ccc(-c5nncnn5)cc4)cc3)(CNCCNC1)CNCCNC2.[64Cu+2]", "assay": "OLINDA dosimetry", "system": "lower large intestine wall", "setting": "pretargeting, 48-h interval", "quantity": "mean absorbed dose", "result": "0.0456 rad/mCi"}
